Published values pooled from the literature.
Compare with care: the assays were run in different laboratories.

Compound	system	conditions	AUC
O=S(=O)(N[C@H]1CCC[C@@H](N2c3ccccc3CCc3ccccc32)[C@@H]1O)c1ccc(OC(F)(F)F)cc1	mouse, plasma	oral, 100 mg/kg, suspension	7.13 µg·h/mL
O=c1c(-c2cnn(-c3ccc(Cl)cc3)c2)c(C(F)(F)F)oc2c(O)c(O)ccc12	mouse	intraperitoneal, 100 mg/kg, DMSO vehicle	19.2 µM·h
CN[C@H](CC(C)C)C(=O)N[C@H]1C(=O)N[C@@H](CC(N)=O)C(=O)N[C@H]2CN[C@H]3C(=O)N[C@H](C(=O)N[C@H](C(=O)NCCCNC(=N)N)c4cc(O)cc(O)c4-c4cc3ccc4O)[C@H](O)c3ccc(c(Cl)c3)Oc3cc2cc(c3O[C@@H]2O[C@H](CO)[C@@H](O)[C@H](O)[C@H]2O[C@H]2C[C@](C)(NCc3ccc(-c4ccc(Cl)cc4)cc3)[C@H](O)[C@H](C)O2)Oc2ccc(cc2Cl)[C@H]1O	mouse	intravenous, 10 mg/kg	203 µM·h
COC1C=COC2(C)Oc3c(C)c(O)c4c(c3C2=O)C2=NC3(CCN(CC(C)C)CC3)NC2=C(NC(=O)C(C)=CC=CC(C)C(O)C(C)C(O)C(C)C(OC(=O)Nc2cnccn2)C1C)C4=O (stereo not shown)	CD-1 mouse, plasma	oral, dose not given, efficacy dose	107 µg·h/mL
COc1cc2ncnc(Oc3ccc(Nc4nccc5[nH]cc(-c6ccc(F)cc6)c(=O)c45)cc3F)c2cc1OC	mouse, athymic nude, U-87 MG xenograft	oral, 8.3 mg/kg, ED50 dose	271 µg·h/mL
COC1C=COC2(C)Oc3c(C)c(O)c4c(c3C2=O)C2=NC3(CCN(CC(C)C)CC3)NC2=C(NC(=O)C(C)=CC=CC(C)C(O)C(C)C(O)C(C)C(OC(=O)Nc2cccnn2)C1C)C4=O (stereo not shown)	CD-1 mouse, plasma	oral, dose not given, efficacy dose	84.2 µg·h/mL
OCCn1nc(-c2ccccc2)c2c(Cl)c(-c3ccccc3)nnc21	mouse juvenile P20, plasma	intraperitoneal, 30 mg/kg	1.71 µM·h
CN[C@H](CC(C)C)C(=O)N[C@H]1C(=O)N[C@@H](CC(N)=O)C(=O)N[C@H]2C(=N)N[C@H]3C(=O)N[C@H](C(=O)N[C@H](C(=O)NCCC[N+](C)(C)C)c4cc(O)cc(O)c4-c4cc3ccc4O)[C@H](O)c3ccc(c(Cl)c3)Oc3cc2cc(c3O[C@@H]2O[C@H](CO)[C@@H](O)[C@H](O)[C@H]2O[C@H]2C[C@](C)(NCc3ccc(-c4ccc(Cl)cc4)cc3)[C@H](O)[C@H](C)O2)Oc2ccc(cc2Cl)[C@H]1O	mouse	intravenous, 50 mg/kg	714 µM·h
CC(C)(O)Cn1nc(-c2ccccc2)c2c(Cl)c(-c3ccccc3)nnc21	mouse juvenile P20, plasma	intraperitoneal, 40 mg/kg	7.92 µM·h
COC1C=COC2(C)Oc3c(C)c(O)c4c(c3C2=O)C2=NC3(CCN(CC(C)C)CC3)NC2=C(NC(=O)C(C)=CC=CC(C)C(O)C(C)C(O)C(C)C(OC(=O)c2cccnc2)C1C)C4=O (stereo not shown)	CD-1 mouse, plasma	oral, dose not given, efficacy dose	133 µg·h/mL

A few entries again:
Compound	system	conditions	AUC
CN[C@H](CC(C)C)C(=O)N[C@H]1C(=O)N[C@@H](CC(N)=O)C(=O)N[C@H]2C(=N)N[C@H]3C(=O)N[C@H](C(=O)N[C@H](C(=O)NCCC[N+](C)(C)C)c4cc(O)cc(O)c4-c4cc3ccc4O)[C@H](O)c3ccc(c(Cl)c3)Oc3cc2cc(c3O[C@@H]2O[C@H](CO)[C@@H](O)[C@H](O)[C@H]2O[C@H]2C[C@](C)(NCc3ccc(-c4ccc(Cl)cc4)cc3)[C@H](O)[C@H](C)O2)Oc2ccc(cc2Cl)[C@H]1O	mouse	intravenous, 50 mg/kg	714 µM·h
COC1C=COC2(C)Oc3c(C)c(O)c4c(c3C2=O)C2=NC3(CCN(CC(C)C)CC3)NC2=C(NC(=O)C(C)=CC=CC(C)C(O)C(C)C(O)C(C)C(OC(=O)c2cccnc2)C1C)C4=O (stereo not shown)	CD-1 mouse, plasma	oral, dose not given, efficacy dose	133 µg·h/mL
